Experimental data of several laboratories.
Compare with care: the assays were run in different laboratories.
SLC6A2: Sodium-dependent noradrenaline transporter (SLC6A2, Homo sapiens, UniProt P23975)
Sequence of UniProt P23975 (whole entry, looked up): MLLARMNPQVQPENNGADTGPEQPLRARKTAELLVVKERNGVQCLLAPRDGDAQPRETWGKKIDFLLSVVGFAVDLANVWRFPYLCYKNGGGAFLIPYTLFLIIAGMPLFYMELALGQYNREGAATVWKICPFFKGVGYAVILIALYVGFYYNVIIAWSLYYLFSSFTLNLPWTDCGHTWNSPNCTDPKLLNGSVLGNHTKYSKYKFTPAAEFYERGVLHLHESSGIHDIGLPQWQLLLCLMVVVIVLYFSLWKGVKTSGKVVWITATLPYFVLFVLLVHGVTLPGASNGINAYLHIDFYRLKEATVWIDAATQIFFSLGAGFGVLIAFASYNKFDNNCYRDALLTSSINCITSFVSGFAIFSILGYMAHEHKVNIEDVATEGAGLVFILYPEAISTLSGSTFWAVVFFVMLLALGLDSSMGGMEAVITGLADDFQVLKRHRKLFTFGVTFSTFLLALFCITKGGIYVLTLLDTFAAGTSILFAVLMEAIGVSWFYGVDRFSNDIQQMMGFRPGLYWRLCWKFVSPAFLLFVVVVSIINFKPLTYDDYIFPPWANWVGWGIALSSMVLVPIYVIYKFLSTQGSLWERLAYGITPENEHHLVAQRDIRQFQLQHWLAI
NT5E: 5'-nucleotidase (NT5E, Homo sapiens, UniProt P21589)
Sequence of UniProt P21589 (whole entry, looked up): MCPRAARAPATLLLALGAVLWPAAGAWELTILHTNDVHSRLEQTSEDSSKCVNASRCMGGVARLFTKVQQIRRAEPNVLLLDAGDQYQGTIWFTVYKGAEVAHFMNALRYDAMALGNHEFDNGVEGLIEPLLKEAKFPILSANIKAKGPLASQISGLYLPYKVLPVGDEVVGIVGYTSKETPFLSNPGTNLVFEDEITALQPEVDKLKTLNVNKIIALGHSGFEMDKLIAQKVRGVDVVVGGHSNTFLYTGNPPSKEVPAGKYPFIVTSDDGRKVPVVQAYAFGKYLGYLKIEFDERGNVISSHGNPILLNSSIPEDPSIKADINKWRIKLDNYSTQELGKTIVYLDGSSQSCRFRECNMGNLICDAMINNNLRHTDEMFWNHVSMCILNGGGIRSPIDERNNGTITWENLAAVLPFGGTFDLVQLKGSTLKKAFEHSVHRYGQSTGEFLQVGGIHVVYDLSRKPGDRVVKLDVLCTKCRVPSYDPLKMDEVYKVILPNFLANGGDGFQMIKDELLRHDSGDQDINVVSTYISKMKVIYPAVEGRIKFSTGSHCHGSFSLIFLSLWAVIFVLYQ
rep main protease: Replicase polyprotein 1ab, main protease (rep, Porcine epidemic diarrhea virus, UniProt P0C6Y4)
rep papain-like protease: Replicase polyprotein 1ab, papain-like protease (rep, Porcine epidemic diarrhea virus, UniProt P0C6Y4)
PIP4K2C: Phosphatidylinositol 5-phosphate 4-kinase type-2 gamma (PIP4K2C, Homo sapiens, UniProt Q8TBX8)
Sequence of UniProt Q8TBX8 (whole entry, looked up): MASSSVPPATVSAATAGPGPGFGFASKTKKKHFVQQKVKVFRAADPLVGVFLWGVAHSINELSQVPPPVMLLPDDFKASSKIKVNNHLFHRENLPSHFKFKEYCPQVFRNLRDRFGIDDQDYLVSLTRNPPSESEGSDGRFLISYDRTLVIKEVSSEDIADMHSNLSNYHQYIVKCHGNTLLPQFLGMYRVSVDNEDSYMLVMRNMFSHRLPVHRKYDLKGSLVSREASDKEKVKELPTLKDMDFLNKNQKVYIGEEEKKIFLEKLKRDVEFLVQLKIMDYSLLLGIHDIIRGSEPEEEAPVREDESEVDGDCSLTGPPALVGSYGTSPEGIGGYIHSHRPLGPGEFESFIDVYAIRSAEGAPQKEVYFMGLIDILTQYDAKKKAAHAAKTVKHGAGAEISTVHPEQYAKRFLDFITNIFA
AMY2: Pancreatic alpha-amylase (AMY2, Sus scrofa, UniProt P00690)
Sequence of UniProt P00690 (whole entry, looked up): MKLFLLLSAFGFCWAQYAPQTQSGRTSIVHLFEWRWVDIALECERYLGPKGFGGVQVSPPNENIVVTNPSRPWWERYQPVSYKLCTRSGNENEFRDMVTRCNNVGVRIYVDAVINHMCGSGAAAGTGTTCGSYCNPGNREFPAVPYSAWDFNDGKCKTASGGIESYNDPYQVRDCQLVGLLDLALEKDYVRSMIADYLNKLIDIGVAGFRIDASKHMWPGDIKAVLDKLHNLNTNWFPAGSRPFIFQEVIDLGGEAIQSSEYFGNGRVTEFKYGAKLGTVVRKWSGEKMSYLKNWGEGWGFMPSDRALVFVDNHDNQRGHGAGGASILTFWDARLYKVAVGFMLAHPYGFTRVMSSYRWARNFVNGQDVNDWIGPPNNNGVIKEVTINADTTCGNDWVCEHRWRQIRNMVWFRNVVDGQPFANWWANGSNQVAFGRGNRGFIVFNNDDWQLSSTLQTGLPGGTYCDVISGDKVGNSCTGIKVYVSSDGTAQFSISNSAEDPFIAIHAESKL
CDK7 with cyclin H: Cyclin-dependent kinase 7, with cyclin H (CDK7, Homo sapiens, UniProt P50613)
Sequence of UniProt P50613 (whole entry, looked up): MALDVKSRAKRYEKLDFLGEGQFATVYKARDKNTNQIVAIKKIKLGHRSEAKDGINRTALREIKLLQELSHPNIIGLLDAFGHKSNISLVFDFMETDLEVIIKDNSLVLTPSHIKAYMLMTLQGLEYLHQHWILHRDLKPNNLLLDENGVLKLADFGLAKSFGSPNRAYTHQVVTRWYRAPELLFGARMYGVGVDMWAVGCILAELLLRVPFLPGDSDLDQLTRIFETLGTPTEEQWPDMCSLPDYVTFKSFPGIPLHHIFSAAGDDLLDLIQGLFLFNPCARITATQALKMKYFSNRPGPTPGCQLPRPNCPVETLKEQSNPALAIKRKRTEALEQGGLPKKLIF
Sequence of UniProt Q9NSA0 (whole entry, looked up): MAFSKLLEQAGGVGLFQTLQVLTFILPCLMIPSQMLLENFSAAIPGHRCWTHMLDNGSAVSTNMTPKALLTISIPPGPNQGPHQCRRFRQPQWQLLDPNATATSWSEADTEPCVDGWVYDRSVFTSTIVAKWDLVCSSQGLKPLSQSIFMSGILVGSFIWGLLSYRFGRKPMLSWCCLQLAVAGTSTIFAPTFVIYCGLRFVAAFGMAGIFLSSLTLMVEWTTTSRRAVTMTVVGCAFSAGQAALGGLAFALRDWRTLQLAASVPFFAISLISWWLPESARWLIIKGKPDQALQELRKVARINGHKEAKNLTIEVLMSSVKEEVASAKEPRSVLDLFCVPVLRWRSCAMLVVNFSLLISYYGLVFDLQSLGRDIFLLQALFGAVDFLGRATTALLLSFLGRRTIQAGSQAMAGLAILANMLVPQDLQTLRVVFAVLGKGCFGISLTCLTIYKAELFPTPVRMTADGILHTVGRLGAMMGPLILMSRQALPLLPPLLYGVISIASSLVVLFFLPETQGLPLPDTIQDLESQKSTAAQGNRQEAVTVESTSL
Sequence of UniProt Q96L34 (whole entry, looked up): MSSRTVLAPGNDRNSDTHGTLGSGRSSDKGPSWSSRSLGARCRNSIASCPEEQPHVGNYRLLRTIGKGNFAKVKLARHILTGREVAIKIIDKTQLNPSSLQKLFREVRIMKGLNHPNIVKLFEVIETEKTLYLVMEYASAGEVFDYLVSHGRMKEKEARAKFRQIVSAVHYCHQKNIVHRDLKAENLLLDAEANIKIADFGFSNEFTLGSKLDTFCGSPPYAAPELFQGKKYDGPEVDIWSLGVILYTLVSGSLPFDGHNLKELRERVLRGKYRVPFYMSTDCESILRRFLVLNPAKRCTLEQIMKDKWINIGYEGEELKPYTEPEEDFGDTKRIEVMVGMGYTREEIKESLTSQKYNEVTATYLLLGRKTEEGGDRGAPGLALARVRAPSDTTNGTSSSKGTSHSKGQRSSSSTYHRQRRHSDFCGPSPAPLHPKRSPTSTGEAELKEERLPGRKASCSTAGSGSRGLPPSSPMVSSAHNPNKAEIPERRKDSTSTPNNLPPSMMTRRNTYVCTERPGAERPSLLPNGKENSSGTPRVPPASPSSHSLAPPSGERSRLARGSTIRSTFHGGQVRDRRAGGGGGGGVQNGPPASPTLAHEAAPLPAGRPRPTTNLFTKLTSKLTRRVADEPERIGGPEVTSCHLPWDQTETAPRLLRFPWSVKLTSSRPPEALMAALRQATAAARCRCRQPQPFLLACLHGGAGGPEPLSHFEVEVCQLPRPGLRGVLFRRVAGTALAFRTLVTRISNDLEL
Sequence of UniProt P54750 (whole entry, looked up): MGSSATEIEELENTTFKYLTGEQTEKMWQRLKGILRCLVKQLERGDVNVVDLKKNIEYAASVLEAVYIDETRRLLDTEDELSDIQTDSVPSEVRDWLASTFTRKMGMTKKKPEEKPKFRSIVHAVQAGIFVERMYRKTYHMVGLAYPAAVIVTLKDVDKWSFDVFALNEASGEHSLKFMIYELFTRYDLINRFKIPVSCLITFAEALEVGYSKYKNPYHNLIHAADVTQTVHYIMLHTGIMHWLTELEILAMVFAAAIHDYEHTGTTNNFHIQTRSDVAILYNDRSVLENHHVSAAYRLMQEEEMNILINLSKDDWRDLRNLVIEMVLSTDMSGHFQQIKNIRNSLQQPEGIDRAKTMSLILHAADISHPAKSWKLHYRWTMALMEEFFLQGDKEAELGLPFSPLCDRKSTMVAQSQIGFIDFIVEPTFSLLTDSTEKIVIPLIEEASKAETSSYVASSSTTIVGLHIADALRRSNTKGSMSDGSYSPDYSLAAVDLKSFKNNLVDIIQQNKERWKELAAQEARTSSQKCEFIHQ
Sequence of UniProt Q00535 (whole entry, looked up): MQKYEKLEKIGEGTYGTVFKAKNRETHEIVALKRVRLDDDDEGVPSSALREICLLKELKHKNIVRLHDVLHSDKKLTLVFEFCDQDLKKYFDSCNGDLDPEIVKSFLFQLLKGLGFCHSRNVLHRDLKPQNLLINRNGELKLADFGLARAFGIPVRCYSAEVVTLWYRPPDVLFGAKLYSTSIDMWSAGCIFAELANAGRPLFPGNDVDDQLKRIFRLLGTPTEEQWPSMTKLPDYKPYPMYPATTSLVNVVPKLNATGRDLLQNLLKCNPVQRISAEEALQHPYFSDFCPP

SMILES | target | test | system | conditions | inhibition
N#C[C@@]12C[C@@H]1[C@@H](n1cnc3c(Nc4ccc(Cl)c(Cl)c4)nc(I)nc31)[C@H](O)[C@@H]2O | SLC6A2 | ligand displacement, radioligand | – | 10 µM | 29%
Cc1cc(-c2ccccc2)nc2sc(C(=O)NCc3ccccc3)c(N)c12 | NT5E | enzyme activity, inhibitor | – | 10 µM | 4%
C#Cc1cc(-c2cc(Nc3nc(N[C@@H](C)c4ccc(F)cn4)ncc3Cl)n[nH]2)ccc1C=O | MARK4 (Homo sapiens, UniProt Q96L34) | enzyme activity, inhibitor | – | 0.2 µM | 8.98%
O=C(NCc1cc(O)c(O)c(Br)c1)c1cccs1 | rep main protease | enzyme activity, inhibitor, FRET | – | 10 µM | 45.9%
CN1CC(Oc2cnc(C#N)cc2-c2ccn3nc(NC(=O)C4CC4)cc3c2)C1 | PRKCZ (Homo sapiens, UniProt Q05513) | enzyme activity, inhibitor | – | 1 µM | 5%
CCOC(=O)C12CC1C(n1ccc3c(NC4CC4)nc(C#Cc4ccccc4)nc31)C(O)C2O (centres unmarked) | SLC6A2 | ligand displacement, radioligand | – | 10 µM | 19%
COC(=O)c1ccc(NC(=O)CSc2nc(-c3ccccc3)cc(C(F)(F)F)c2C#N)cc1 | NT5E | enzyme activity, inhibitor, HPLC | – | 10 µM | 90%
[2H]c1cc(C)c(NC(=O)c2cnc(Nc3cc(N4CCCCC4)nc(C)n3)s2)c(Cl)c1 | BTK (Homo sapiens, UniProt Q06187) | enzyme activity, inhibitor, mobility shift | – | 10 nM | > 90%
CC[C@H](C)[C@H](NC(=O)[C@H](CCC(N)=O)NC(=O)[C@@H](NC(=O)[C@H](CCSC)NC(=O)[C@H](CCCCN)NC(=O)[C@H](CO)NC(=O)[C@@H](NC(=O)[C@H](CCSC)NC(=O)[C@H](CC(C)C)NC(=O)[C@H](CC(N)=O)NC(=O)[C@@H](NC(=O)[C@@H](NC(=O)[C@H](CO)NC(=O)[C@H](CC(C)C)NC(=O)[C@H](C)NC(=O)[C@H](CCCNC(=N)N)NC(=O)[C@H](CCC(=O)O)NC(=O)[C@H](Cc1ccc(O)cc1)NC(=O)[C@H](Cc1ccccc1)NC(=O)[C@H](C)NC(=O)[C@H](CC(N)=O)NC(=O)[C@@H](N)CCCCN)[C@@H](C)CC)[C@@H](C)CC)[C@@H](C)O)C(C)C)C(=O)N[C@@H](CC(N)=O)C(=O)N[C@H](C(=O)O)C(C)C | Cyclin-dependent kinase 5, with p25 (CDK5, Homo sapiens, UniProt Q00535) | enzyme activity, inhibitor, radiometric | – | 10 µM | 8%
O=C(NCc1cc(O)c(O)c(Br)c1)c1ccco1 | rep papain-like protease | enzyme activity, inhibitor, FRET | – | 10 µM | 91.5%
COC(=O)c1ccc(NC(=O)CCSc2nc(C)cc(C)c2C#N)cc1 | NT5E | enzyme activity, inhibitor | – | 10 µM | 25%
CN(C)c1ccc(C(=O)NCc2cc(O)c(O)c(Br)c2)cc1 | rep main protease | enzyme activity, inhibitor, FRET | – | 10 µM | 96.9%
CCCCC(=O)Nc1ccc(-c2ccc3ncn(CC)c(=O)c3c2)cn1 | PIP4K2C | binding, competition with immobilised ligand | – | 0.5 µM | 98.3%
CO[C@H]1C(=O)[C@]2(C)[C@@H](OC)C[C@H]3OC[C@@]3(OC(C)=O)[C@H]2[C@H](OC(=O)c2ccccc2)[C@]2(O)C[C@H](OC(=O)[C@H](O)[C@@H](NC(=O)OC(C)(C)C)c3ccccc3)C(C)=C1C2(C)C | SLC22A11 (Homo sapiens, UniProt Q9NSA0) | transporter uptake, inhibitor | – | 25 µM | 74.4%
O=C(NCc1cc(O)c(O)c(Br)c1)c1ccc2ccccc2c1 | rep main protease | enzyme activity, inhibitor, FRET | – | 10 µM | 64.7%
Cc1cccc(N(O)N=Nc2ccc(S(=O)(=O)Nc3nccs3)cc2)c1 | AMY2 | enzyme activity, inhibitor | – | 20 µg/mL | 15.8%

SMILES | target | test | system | conditions | inhibition
CCN(CC)c1ccc(C2=NNC(=O)CC2C)cc1[N+](=O)[O-] (centres unmarked) | PDE1A (Homo sapiens, UniProt P54750) | enzyme activity, inhibitor | – | 0.1 µM | 5%
COc1ccc(NC(=O)c2ccc3c(c2)C(=O)NC3=O)cc1 | MAOB (Homo sapiens, UniProt P27338) | enzyme activity, inhibitor | – | 1 µM | < 5%
Cc1ccc(N(O)N=Nc2ccc(S(=O)(=O)Nc3cc(C)on3)cc2)cc1 | AMY2 | enzyme activity, inhibitor | – | 120 µg/mL | 42.1%
C=C(C)[C@@H]1CC[C@]2(C)CC[C@]3(C)[C@H](CC[C@@H]4[C@@]5(C)CC[C@H](O)C(C)(C)[C@@H]5CC[C@]43C)[C@@H]12 | CDK7 with cyclin H | enzyme activity, inhibitor, ADP detection | – | 10 µM | 18.4%
Cc1ccc(N(O)N=Nc2ccc(S(=O)(=O)Nc3onc(C)c3C)cc2)cc1 | AMY2 | enzyme activity, inhibitor | – | 300 µg/mL | 57.9%
NC/C(=C\F)COc1cccc(Cn2c(=S)[nH]c(=O)c3[nH]cnc32)c1 | SLC6A2 | ligand displacement, radioligand | – | 10 µM | < 50%
Cc1cc(NS(=O)(=O)c2ccc(N=NN(C)O)cc2)no1 | AMY2 | enzyme activity, inhibitor | – | 180 µg/mL | 42.1%
Cc1cc(C(F)(F)F)c2c(N)c(C(=O)Nc3ccccc3)sc2n1 | NT5E | enzyme activity, inhibitor | – | 10 µM | 58%
O=C(NCc1cc(O)c(O)c(Br)c1)c1ccc(Cl)c(F)c1 | rep papain-like protease | enzyme activity, inhibitor, FRET | – | 10 µM | 75.5%
CCc1nn(C)c2nc(-c3ccc(C(=O)O)cc3)nc(NCc3ccc(F)cc3)c12 | PDE7A (Homo sapiens, UniProt Q13946) | enzyme activity, inhibitor, radiometric | – | 10 µM | 21.6%
CCN(O)N=Nc1ccc(S(=O)(=O)Nc2onc(C)c2C)cc1 | AMY2 | enzyme activity, inhibitor | – | 60 µg/mL | 21.1%
CCCCCCCCCCCC1=C(O)C(=O)C=C(O)C1=O | CDK7 with cyclin H | enzyme activity, inhibitor, ADP detection | – | 10 µM | -17.8%
COc1cc(CNC(=O)c2ccc(Cl)s2)cc(Br)c1OC | rep main protease | enzyme activity, inhibitor, FRET | – | 10 µM | 42.6%
CCCn1cnc2ccc(-c3ccc(NC(=O)CC4CC4)nc3)cc2c1=O | PIP4K2C | binding, competition with immobilised ligand | – | 0.5 µM | 99.5%
CCNC(=O)c1cnn(-c2ccc(-n3ccc(Cl)c(Cl)c3=O)cc2)c1 | TRPC3 (Homo sapiens, UniProt Q13507) | ion current, inhibitor, patch clamp | HEK293 | 10 µM | > 90%
COc1ccc(C(=O)NCc2ccc(O)c(O)c2)cc1 | rep main protease | enzyme activity, inhibitor, FRET | – | 10 µM | 76.2%

Excerpt of the above:
SMILES | target | test | system | conditions | inhibition
COc1ccc(NC(=O)c2ccc3c(c2)C(=O)NC3=O)cc1 | MAOB (Homo sapiens, UniProt P27338) | enzyme activity, inhibitor | – | 1 µM | < 5%
CCc1nn(C)c2nc(-c3ccc(C(=O)O)cc3)nc(NCc3ccc(F)cc3)c12 | PDE7A (Homo sapiens, UniProt Q13946) | enzyme activity, inhibitor, radiometric | – | 10 µM | 21.6%
